# Measurements pooled from the literature.
# Every numbered part comes from another study and shows a few of its results, in no order.

# Series 1 — method: RNA Bind-n-Seq; molecule type: RNA; medium: in vitro; tested at: 365 nM; baseline: no-protein control; reading: higher = stronger binding
# Target: RNA binding protein fox-1 homolog 2, RRM domain, GST-SBP tag (RBFOX2, Homo sapiens, UniProt O43251-10, residues 100-194)
# Notes: natural RNA segment, single round, ends assumed
# Constant ends, left off below: GGGAGUUCUACAGUCCGACGAUC … UGGAAUUCUCGGGUGCCAA
# Residues (chain): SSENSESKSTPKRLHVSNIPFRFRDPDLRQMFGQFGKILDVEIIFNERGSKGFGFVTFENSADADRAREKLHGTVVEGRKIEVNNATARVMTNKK
Oligonucleotide,RBNS enrichment (R)
UUUGGUUUCCAAGCCAAGGGAAAAGCUGAAGACAUGAGUAAUGAUCUUGCUUCAUGAGAUUGUACCUCUUAAGUGGCUGCGGACCUGGCUAAACUGUGGGUGGCAGUGGG,0.395
GGUCUGGUCAGGGUCCUGCUGCUUCCGUAACCUGGGUUUGCCUGUCCACCCCUGGCCUCUUCCGUAUUUGCUGUUAUCUGCUCCCUCUUUCCUGAGGGGCCUCAGGGCAU,0.809
UGAAAAUCUUUUUUAAGGGAGAAAAAUCUCAACCAAAGUUAUGCUCAUCCAGACAAGCUGACCUUUGAGUUAAUUUCAGCACAACUCAUUCUUCAGUGCCUCAUGACUGA,0.478
AGUGUCCCAAAGAUAUCUUAGAUAAACUAUUUUGAAGUUCAGAUUUCAGAUGAGGCAACAUUUUCUUGAGAUAAUUACCCAAGUUUCAUCCAUGUUGAAUGGUACAAAAU,0.353
CCUUUCCUGGGGGAUGUGCACGGCAGCUUGAGCCUGUCACGUGGUCAAGGCCCGGCCCCAUCAGAGGCUGGGGGAGGCGGCACAUUGGCAGUGUGUCACACUGAGCUGGG,0.224
ACGGGUCUGCUGGAGAGAGAAGAAACAGGUGGCUGCCUUCCACCUCACUCCUCACUUGAGCUGCCUGGACUCGAGGAGCAGAGACUGGACAACCCAGGCGUCAGAAGCCU,0.455

# Series 2 — method: protein binding microarray; molecule type: double-stranded DNA, one strand shown; medium: in vitro; tested at: not given; baseline: not given; reading: higher = stronger binding
# Target: Histone acetyltransferase KAT6A, winged helix 1, GST fusion (KAT6A, Homo sapiens, UniProt Q92794, residues 1-85)
# Notes: 8-mer, flanks averaged, mean of 2 arrays, mostly near background
# Construct (chain): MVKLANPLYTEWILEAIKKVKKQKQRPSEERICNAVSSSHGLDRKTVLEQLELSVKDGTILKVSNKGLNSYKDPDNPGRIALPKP
Oligonucleotide,E-score
GTTCTTGA,-0.114
CTGAGCTC,-0.122
CGTGTTGA,-0.143
ATACTACA,-0.123
AGCTTCAG,-0.179
AAGCACCC,-0.0692
GGCATAAA,0.0434

# Series 3 — method: protein-binding microarray; molecule type: double-stranded DNA, one strand shown; medium: in vitro; tested at: 2200 nM top; notes: 60-bp whole probe; added: salmon DNA 0.4 mg/ml; baseline: random background probes; reading: higher = stronger binding; constant ends, left off below: GCCTAGCAC … GTCTTGATTCGCTTGACGCTGCTG
# Target: Interferon regulatory factor 7, full length, phosphomimetic (IRF7, Homo sapiens, UniProt Q92985, residues 1-503, S471D/S472D/S475D/S476D/S477D/S483D/S484D/S487D)
# Residues (chain): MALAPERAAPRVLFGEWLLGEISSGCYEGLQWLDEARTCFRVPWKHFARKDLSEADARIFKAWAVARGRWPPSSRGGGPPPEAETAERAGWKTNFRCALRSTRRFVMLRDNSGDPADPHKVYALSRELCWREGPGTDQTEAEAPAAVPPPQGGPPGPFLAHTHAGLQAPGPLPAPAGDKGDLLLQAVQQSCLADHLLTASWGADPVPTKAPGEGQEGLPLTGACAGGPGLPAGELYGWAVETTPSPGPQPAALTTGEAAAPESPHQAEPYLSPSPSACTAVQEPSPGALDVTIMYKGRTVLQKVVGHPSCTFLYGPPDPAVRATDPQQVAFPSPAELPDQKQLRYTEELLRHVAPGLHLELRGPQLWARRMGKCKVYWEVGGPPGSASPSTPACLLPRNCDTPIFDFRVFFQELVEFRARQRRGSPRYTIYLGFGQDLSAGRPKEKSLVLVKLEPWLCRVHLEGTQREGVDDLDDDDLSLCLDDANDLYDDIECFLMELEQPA
Oligonucleotide,fitted relative affinity [z-score]
TCAAGTATTTATCTGCAACTGTGCTAG,0.263
TCAATTCTCTGTTTATGACTGTGCTAG,1.76
TTAGATTTCCTACTGCTTTAGTGCTAG,1.12
TCCTCTTTCACTGCTCCCCAAGTGCTA,2.87
TCAATTGTGGATCTTGCACTGTGCTAG,0.507
TTAGGTATCGTTATCGGTTAGTGCTAG,1.31
TCATTTTTTTTCCTAATACTGTGCTAG,1.96
CCTAATTCTCTTTTCACTTTGTGCTAG,3.68
TTGGAACTGAGTTTCGATTAGTGCTAG,3.63

# Single results of other studies
Molecule,target,assay,test system,setting,how to read,quantity,value
"PhoQ, residues 284 288 289 292 302 303 AQGLTV","PhoP, residues 12 14 15 18 19 LYFRQ (Escherichia coli, UniProt P23836)","Sort-seq, item: YFP reporter",E. coli,"PhoQ-PhoP variant library, added: 10 µM Mg2+","baseline: high Mg2+ state, higher = stronger signaling",fold induction,14.5
